Measured values collected from several papers.
Parts stem from different laboratories: compare values within a part only.
Chain of UniProt Q9C0B0 (30-357, looked up): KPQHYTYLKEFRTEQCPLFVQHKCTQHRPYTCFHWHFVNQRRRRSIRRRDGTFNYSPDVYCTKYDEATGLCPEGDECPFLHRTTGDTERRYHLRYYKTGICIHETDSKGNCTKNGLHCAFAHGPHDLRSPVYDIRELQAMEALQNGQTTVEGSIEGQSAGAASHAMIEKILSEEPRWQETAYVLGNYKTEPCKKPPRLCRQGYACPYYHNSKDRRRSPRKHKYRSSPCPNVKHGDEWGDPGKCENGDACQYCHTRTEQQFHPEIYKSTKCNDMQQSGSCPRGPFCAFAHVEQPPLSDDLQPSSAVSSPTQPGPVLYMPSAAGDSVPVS

Sample 1
Target: Sal-like protein 4, full length isoform B (SALL4, Homo sapiens, UniProt Q9UJQ4-2, residues 1-616)
Technique: universal PBM
Molecule type: double-stranded DNA, one strand shown
Medium: in vitro
Concentration: not given
Notes: 8-mer, flanks averaged, mean of replicates
Direction: higher = stronger binding
`GCGGGTAA` gave an E-score of -0.204.
`ACCCCTTG` has an E-score of -0.196.
The E-score of `GGCCTTCA` is reported as -0.127.
With `AGTTACCC` the E-score was -0.0131.
`AAGATAGA` has an E-score of 0.148.
With `CGGACAAA` the E-score was -0.0037.

Sample 2
Target: Histone acetyltransferase KAT6A, winged helix 2, GST fusion (KAT6A, Homo sapiens, UniProt Q92794, residues 85-181)
Technique: protein binding microarray
Molecule type: double-stranded DNA, one strand shown
Medium: in vitro
Concentration: not given
Notes: 8-mer, flanks averaged, mean of 2 arrays, mostly near background
Reference: not given
Direction: higher = stronger binding
Construct (chain): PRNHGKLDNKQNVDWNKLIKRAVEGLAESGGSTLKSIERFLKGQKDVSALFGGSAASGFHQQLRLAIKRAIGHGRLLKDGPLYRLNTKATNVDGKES
For `ACTACTAA`, the E-score was -0.2.
With `CTTACTTC` the E-score was 0.0269.
The E-score of `TCTAGAGA` is reported as -0.0932.
`ACTGCGTC` gave an E-score of 0.0568.

Mixed results
`GGGAGUUCUACAGUCCGACGAUCGCGAACAGGACUACAGAAAUGCUGGUAAUUUCAGUCACUUGCUGAUGACUUCUGAUGUCCCAGCAAAUGUUGGCAUUGUUGACUGCUGAGAAGAUACUUCUGAGGACCCACGUCUAAGGUCAACAGAGGAUUGAGCAUCA` has a bound/input enrichment of 0.078 ratio (RING finger protein unkempt homolog, zinc fingers 1-6, GST-SBP tag (UNK, Homo sapiens, UniProt Q9C0B0, residues 30-357); RNA Bind-n-Seq; RNA, in vitro; not given, RNA with constant flanks, human-mouse chimeric sites, ends assumed; reference: input RNA pool, higher = stronger binding).
`PhoQ, residues 284 288 289 292 302 303 SIHLQL` gave a fold induction of 11.4 (PhoP, residues 12 14 15 18 19 SEGLL (Escherichia coli, UniProt P23836); Sort-seq, refers to: YFP reporter; E. coli; PhoQ-PhoP variant library, together with: 10 µM Mg2+; reference: high Mg2+ state, higher = stronger signaling).

Some of these lines once more (sample 1):
With `AGTTACCC` the E-score was -0.0131.
